Results gathered from unrelated publications.
Numbers after ± are the reported error.
Histone acetyltransferase RTT109 with Vps75: Histone acetyltransferase RTT109, with Vps75 (Saccharomyces cerevisiae, UniProt Q07794)
CRBN with DDB1: Protein cereblon, with DDB1 (CRBN, Homo sapiens, UniProt Q96SW2)
CYP2C8: Cytochrome P450 2C8 (CYP2C8, Homo sapiens, UniProt P10632)
BRD4 BD2: Bromodomain-containing protein 4, BD2 (BRD4, Homo sapiens, UniProt O60885)
SIRT2: NAD-dependent protein deacetylase sirtuin-2 (SIRT2, Homo sapiens, UniProt Q8IXJ6)
UCHL1: Ubiquitin carboxyl-terminal hydrolase isozyme L1 (UCHL1, Homo sapiens, UniProt P09936)
TNK2: Activated CDC42 kinase 1 (TNK2, Homo sapiens, UniProt Q07912)
serine/threonine phosphatase Stp1: serine/threonine phosphatase Stp1 (Staphylococcus aureus, UniProt A0A0H2XF73)
Faah: Fatty-acid amide hydrolase 1 (Faah, Rattus norvegicus, UniProt P97612)

The IC50 of `O=S(=O)(Nc1ccc(O)c(Br)c1)c1ccc2ccccc2c1` is reported as > 125 µM (Histone acetyltransferase RTT109 with Vps75; enzyme activity, inhibitor, HTS, CPM-based, dose response).
For `O=C1CCC(N2C(=O)c3cccc(NCCCCCCNC(=O)c4ccc(Oc5ccc(Cl)cc5NS(=O)(=O)c5ccc(Cl)c(C(F)(F)F)c5)cc4)c3C2=O)C(=O)N1` (stereo not shown), the IC50 was 0.0139 µM (CRBN with DDB1; binding, HTRF).
With `Cc1cc([C@@H](C)Nc2ccccc2C(=O)O)c2nc(N3CCC(F)(F)CC3)c(C#N)c(=O)n2c1` the IC50 was 1.45 µM (Phosphatidylinositol 4,5-bisphosphate 3-kinase catalytic subunit alpha isoform, with p85 alpha (PIK3CA, Homo sapiens, UniProt P42336, E542K); ADP-Glo; with: ATP 10 µM).
With `CC(C)=CCc1c(O)cc2c(c1O)C(=O)C[C@@H](c1ccc(O)cc1)O2` the IC50 was 1.9 ± 0.1 µM (CYP2C8; inhibitor; pH 7.4).
The IC50 of `COc1cc2nccc(Oc3ccc(NC(=O)c4cc5c(n(-c6ccccc6)c4=O)CCCC5=O)nc3)c2cc1OC` is reported as > 0.1 µM (MET (Homo sapiens, UniProt P08581); cell viability, CellTiter-Glo; Ba/F3 expressing recombinant kinase; 48 h).
With `N#Cc1ccc([C@H]2CCc3cncn32)c(F)c1` the IC50 was ~100 µM (CYP2C8; inhibitor, measured: paclitaxel 6α-hydroxylation; pooled human liver microsomes; pH 7.4, with: paclitaxel 10 µM).
`N=C(SC1CC(=O)N(c2ccc(Br)cc2)C1=O)N1N=C(c2ccccc2)CC1c1ccccc1` (stereo not shown) gave an IC50 of > 125 µM (Histone acetyltransferase RTT109 with Vps75; enzyme activity, inhibitor, HTS, CPM-based, dose response).
`CN(C)C(=O)c1cc2cnc(Nc3cncc(-c4ccc5c(=O)cc(N6CCOCC6)oc5c4)c3)nc2n1C1CCCC1` has an IC50 of > 10 µM (BRD4 BD2; inhibitor).
`O=C(Nc1ccc(Cl)cc1)c1ccc([N+](=O)[O-])o1` gave an IC50 of 3.8 µM (TXNRD1 (Homo sapiens, UniProt Q16881); enzyme activity, inhibitor; NCI-H23 cell lysate).
For `COc1ccc(C2=NN(C3CCCCCC3)C(=O)[C@@H]3CC=CC[C@H]23)cc1-c1ccc(C(N)=O)cc1` (relative stereo), the IC50 was 0.158 µM (3',5'-cyclic-AMP phosphodiesterase 4B, isoform PDE4B1 (PDE4B, Homo sapiens, UniProt Q07343); enzyme activity, inhibitor, scintillation proximity; with: 0.5 µM substrate).
With `Fc1cccc(Nc2nc(-c3ccccc3)no2)c1` the IC50 was > 125 µM (Histone acetyltransferase RTT109 with Vps75; enzyme activity, inhibitor, HTS, CPM-based, dose response).
`CCCCCCCCCCCCNC(=S)NCCCC[C@H](NS(C)(=O)=O)C(=O)N[C@H](C)C(=O)N[C@@H](CCCNC(=N)N)C(=O)N1CCOCC1` has an IC50 of 13 ± 2 µM (SIRT2; enzyme activity, inhibitor).
For `O=C(Nc1nc2ccccc2n1CCN1CCOCC1)c1cccc([N+](=O)[O-])c1`, the IC50 was 0.215 µM (Receptor-like protein kinase FERONIA (FER, Arabidopsis thaliana, UniProt Q9SCZ4); enzyme activity, inhibitor).
With `C=CC(=O)Nc1cccc(Oc2nc(Nc3ccc(N4CCN(C)CC4)cc3)nc3ccoc23)c1` the IC50 was 0.00156 µM (BTK (Homo sapiens, UniProt Q06187); concentration not given).
For `CN(C)C(=O)c1cc2cnc(Nc3ccc(-c4cccc5c(=O)cc(N6CCOCC6)oc45)c(F)c3)nc2n1C1CCCC1`, the IC50 was 0.0693 µM (BRD4 BD2; inhibitor).
For `Cc1ccc2[nH]nc(-c3nnc(Nc4ccc([N+](=O)[O-])cc4)s3)c2c1`, the IC50 was 7.73 ± 1.62 µM (thymidine phosphorylase; enzyme activity, inhibitor, spectrophotometric; pH 7.5, 25 °C).
For `CN(C)C(=O)c1cc2cnc(Nc3ccc(-c4cccc5c(=O)cc(N6CCOCC6)oc45)cn3)nc2n1C1CCCC1`, the IC50 was > 10 µM (BRD4 BD2; inhibitor).
`O=[N+]([O-])c1cccc(S(=O)(=O)Nc2ccc(O)c(Br)c2)c1` has an IC50 of > 125 µM (Histone acetyltransferase RTT109 with Vps75; enzyme activity, inhibitor, HTS, CPM-based, dose response).
The IC50 of `O=C1CCC(N2Cc3c(CNC(=O)c4ccc(F)cc4)cccc3C2=O)C(=O)N1` (stereo not shown) is reported as 1.3 µM (CRBN with DDB1; binding, competitor, fluorescence polarization; with: Cy5-labelled lenalidomide probe).
For `Cc1cnc(-c2ccc(-c3ccc(NC(=O)Nc4c(F)cc(F)cc4F)cc3F)c3c2C(=O)NC3)[nH]1`, the IC50 was 0.002 µM (LYN (Homo sapiens, UniProt P07948); enzyme activity, inhibitor; with: ATP at Km).
With `O=C(Nc1ccccc1Oc1nc2ccccc2n2cnnc12)c1cccs1` the IC50 was 7.38 µM (Catenin beta-1, with BCL9 HD2 (CTNNB1, Homo sapiens, UniProt P35222); BCL9 binding, inhibitor, AlphaScreen).
`N#CC(=Cc1cccc(Cl)c1Cl)C(=O)NCc1ccco1` has an IC50 of > 200 µM (UCHL1; inhibitor, ubiquitin-rhodamine cleavage; 2 h preincubation).
`CCOC(=O)[C@H]1O[C@@H]1C(=O)N[C@@H](CC(C)C)C(=O)NCCC(C)C` gave an IC50 of 0.35 ± 0.065 µM (CAPN1 (Homo sapiens, UniProt P07384)).
`CN(C)C(=O)c1cc2cnc(Nc3ccc(-c4ccc5c(=O)cc(N6CCOCC6)oc5c4)cc3)nc2n1C1CCCC1` gave an IC50 of > 10 µM (BRD4 BD2; inhibitor).
`CC[C@@H]1[C@H](F)C(=O)N[C@@H]1COc1nccc2cc(C(N)=O)c(OC)cc12` has an IC50 of 1.8 µM (TLK2 (Homo sapiens, UniProt Q86UE8); ATP-site probe binding, inhibitor, ActivX ATP probe profiling; THP-1 cell lysate; probe site Lys1).
With `O=C(NO)c1ccc(Cn2cnc3c(Nc4ccc(Cl)cc4)ncnc32)cc1` the IC50 was 0.048 µM (HDAC7 (Homo sapiens, UniProt Q8WUI4); enzyme activity, inhibitor, continuous fluorogenic).
The IC50 of `CN1CCN(c2ccc(Nc3ncc4cc(C#N)c(=O)n(C5CCCC5)c4n3)cc2)CC1` is reported as 0.11 µM (TNK2).
With `NCCCCNC(=O)OCC1c2ccccc2-c2ccccc21` the IC50 was > 150 µM (IAPP (Homo sapiens, UniProt P10997); ThT displacement, ThT fluorescence; pH 7.4, preformed target-ThT complex, with: 5 µM ThT).
For `O=C(CCl)NC(=O)NCCc1cccs1`, the IC50 was 77.4 µM (UCHL1; inhibitor, ubiquitin-rhodamine cleavage; 2 h preincubation).
For `Cc1ccc2[nH]nc(-c3nnc(Nc4ccc(F)cc4Cl)s3)c2c1`, the IC50 was 6.82 ± 0.87 µM (thymidine phosphorylase; enzyme activity, inhibitor, spectrophotometric; pH 7.5, 25 °C).
For `Nc1[nH]cnc2nc(S)nc1-2`, the IC50 was > 125 µM (Histone acetyltransferase RTT109 with Vps75; enzyme activity, inhibitor, HTS, CPM-based, dose response).
With `COc1cc(/C=C2\CCCC(C3(O)C(=O)Nc4ccc(Cl)cc43)C2=O)cc(OC)c1OC` (stereo not shown) the IC50 was 14 µM (ERK; enzyme activity).
`Sc1n[nH]c(-c2ccccc2)n1` has an IC50 of > 125 µM (Histone acetyltransferase RTT109 with Vps75; enzyme activity, inhibitor, HTS, CPM-based, dose response).
For `O=C1[C@H]2CCCN2[C@H](c2cccc3c2OCO3)N1c1ccc(Cl)c(Cl)c1` (racemic), the IC50 was 4.3 µM (mutant huntingtin exon 1 and calmodulin; protein binding, inhibitor, AlphaScreen).
With `COc1c(O)cc2c(c1O)C(=O)c1c(cc(C)c(O)c1OC)C2=O` the IC50 was > 303 µM (serine/threonine phosphatase Stp1; enzyme activity, inhibitor; with: pNPP).
`N#CC(=Cc1ccc(O)c([N+](=O)[O-])c1)C(=O)NCc1ccccc1` gave an IC50 of > 200 µM (UCHL1; inhibitor, ubiquitin-rhodamine cleavage; 2 h preincubation).
`Cc1nc(-c2cnc(NC(C)C)n(C)c2=O)ccc1Oc1ccnc(-c2cnn(C)c2)c1` gave an IC50 of > 100 µM (CYP2C8; metabolism-dependent inhibition, inhibitor; 30 min preincubation with NADPH).
`COc1ccc(-c2oc3c(CC=C(C)C)c(O[C@@H]4O[C@H](CO)[C@@H](O)[C@H](O)[C@H]4O)cc(O)c3c(=O)c2O[C@@H]2O[C@@H](C)[C@H](O)[C@@H](O)[C@H]2O)cc1` has an IC50 of > 148 µM (serine/threonine phosphatase Stp1; phosphatase activity, inhibitor).
`Cc1c(-c2ccccc2)oc2c(C(=O)O)cccc2c1=O` has an IC50 of 28.3 µM (Anoctamin-1 (Ano1, Mus musculus, UniProt Q8BHY3); chloride current; HEK293 transfected; at +80 mV).
`O=S(=O)(Nc1ccc(O)c(Br)c1)c1ccccc1` gave an IC50 of > 125 µM (Histone acetyltransferase RTT109 with Vps75; enzyme activity, inhibitor, HTS, CPM-based, dose response).
`CCCCCCCCCCCCNC(=S)NCCCC[C@H](NC(=O)OCc1ccccc1)C(=O)N[C@@H](Cc1c[nH]c2ccccc12)C(=O)N[C@@H](CCNC(=N)N)C(N)=O` has an IC50 of 7.3 ± 0.8 µM (SIRT2; enzyme activity, inhibitor).
For `COc1ccc(C2(F)CC2N)cc1OC` (stereo not shown), the IC50 was 2.2 µM (tyramine oxidase (Arthrobacter sp.); enzyme activity, inhibitor, spectrophotometric benzylamine oxidation; 10 min preincubation, pH 7.2, 25 °C, with: benzylamine 0.6 mM substrate).
`O=C(Nc1cccnn1)N1CCC(=Cc2cccc(Oc3ccc(C(F)(F)F)cn3)c2)CC1` gave an IC50 of 0.002 µM (Faah; enzyme activity, inhibitor; rat brain membranes; 60 min preincubation).
For `CCOC(=O)C(=NNc1ccc(O)cc1)C(C)=O`, the IC50 was 101 µM (Glycogen synthase kinase-3 beta, with Nav1.6 (GSK3B, Homo sapiens, UniProt P49841); Nav1.6-GSK3β assembly, inhibitor, split-luciferase complementation; HEK293 cells (transfected)).
For `O=C(Nc1cnccc1Cl)N1CCN(Cc2ccc3c(c2)OC(F)(F)O3)CC1`, the IC50 was 0.161 µM (Faah; enzyme activity, inhibitor; rat brain membranes; 45 min preincubation).
For `CN(C)C(=O)c1cc2cnc(Nc3cncc(-c4cccc5c(=O)cc(N6CCOCC6)oc45)c3)nc2n1C1CCCC1`, the IC50 was > 10 µM (Bromodomain-containing protein 4, BD1 (BRD4, Homo sapiens, UniProt O60885); inhibitor).
`Cn1ccnc1-c1noc(N)n1` gave an IC50 of > 125 µM (Histone acetyltransferase RTT109 with Vps75; enzyme activity, inhibitor, HTS, CPM-based, dose response).
`Cc1ccc(NC(=O)c2ccc(C)c(C(F)(F)F)c2)cc1C#Cc1nn(C2CCC(O)CC2)c2ncnc(N)c12` (stereo not shown) has an IC50 of 0.175 µM (TNK2; inhibitor, radiometric kinase; with: ATP 10 µM).
With `COc1ccccc1CC(=N)N1C[C@@H]2C(=O)CCC(c3ccccc3)(c3ccccc3)[C@@H]2C1` the IC50 was > 0.2 µM (TACR1 (Homo sapiens, UniProt P25103); intracellular calcium increase, antagonist; U373 MG; with: substance P 100 nM).
